Measurements gathered from unrelated publications.
Every numbered part comes from another study and shows a few of its results, in no order. Changes are numbered by the printed parent chain.

Block 1
Target: NFE2L3, bZIP domain (human)
Technique: DHFR protein complementation
Sample: yeast
Setting: single substitutions, most at no-binding floor
Reference: wild-type JUN-FOS pair
Reading: higher = stronger binding
Parent: JUN, bZIP domain (human); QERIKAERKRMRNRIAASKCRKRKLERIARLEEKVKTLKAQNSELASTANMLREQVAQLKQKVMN; partner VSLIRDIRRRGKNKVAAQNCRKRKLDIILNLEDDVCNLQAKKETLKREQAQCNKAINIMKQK
With `Q55P` the binding fitness was -1.59 natural log.
With `S43K` the binding fitness was -1.55 natural log.
`M51N` gave a binding fitness of -1.47 natural log.
The binding fitness of `E44A` is reported as -1.44 natural log.
For `R30Q`, the binding fitness was -1.19 natural log.
`K34A` gave a binding fitness of -1.58 natural log.
For `R53T`, the binding fitness was -1.35 natural log.
`S43P` gave a binding fitness of -1.42 natural log.
With `R53W` the binding fitness was -1.52 natural log.
For `A49G`, the binding fitness was -1.54 natural log.
`L52Y` has a binding fitness of -1.51 natural log.

Block 2
Target: Prothrombin, mature alpha-thrombin (F2, Homo sapiens, UniProt P00734)
Technique: aptamer microarray, sandwich
Form: DNA with 2'F-ANA
Sample: in vitro
Tested at: 200 nM
Setting: whole 15-mer aptamer, many near background
With: Cy3 exosite-II aptamer, 400 nM
Reading: higher = stronger binding
Strand: GGTTGGTGTGGTTGG
`2'F-ANA at 1 2 5 6 7 12 14 15` — result for “mean fluorescence intensity”: 46.6 a.u.
`2'F-ANA at 1 2 3 12` — result for “mean fluorescence intensity”: 436 a.u.
For `2'F-ANA at 3 4 6 11 13 15`, “mean fluorescence intensity” read 388 a.u.
`2'F-ANA at 2 4 6 8 9 11 12 15` — result for “mean fluorescence intensity”: 404 a.u.
`2'F-ANA at 2 4 7 12 14 15`: “mean fluorescence intensity” 183 a.u.
Under “mean fluorescence intensity”, `2'F-ANA at 1 2 3 5 6 9 10 12 13 14 15` is recorded as 48.7 a.u.
Under “mean fluorescence intensity”, `2'F-ANA at 1 4 5 10 13 14 15` is recorded as 62.3 a.u.
Under “mean fluorescence intensity”, `2'F-ANA at 1 5 11 12 14 15` is recorded as 88.3 a.u.
`2'F-ANA at 2 3 6 7 9 10 11 12` — result for “mean fluorescence intensity”: 346 a.u.
`2'F-ANA at 1 2 3 4 5 6 7 8 9 12 13 14 15` — result for “mean fluorescence intensity”: 53.1 a.u.
`2'F-ANA at 1 3 4 6 8 12 13` — result for “mean fluorescence intensity”: 324 a.u.
For `2'F-ANA at 2 3 7 11 12 13 14 15`, “mean fluorescence intensity” read 421 a.u.

Block 3
Target: CCND3, cyclin fold, Cln2 fusion (human)
Technique: yeast growth competition, sequencing
Sample: yeast
Setting: strong parent motif
Reference: not given
Reading: higher = stronger binding
Parent: INSM1 docking peptide (human); PKAIRKLHFEDEV
For `PKAIRKLHFCDEV [E10C]`, “normalised enrichment score” read 0.569.
`PKFIRKLHFEDEV [A3F]`: “normalised enrichment score” 0.462.
`PKRIRKLHFEDEV [A3R]` — result for “normalised enrichment score”: 0.267.
For `PMAIRKLHFEDEV [K2M]`, “normalised enrichment score” read 0.761.
Under “normalised enrichment score”, `PKAIRKLHFEDWV [E12W]` is recorded as 0.51.
Under “normalised enrichment score”, `PWAIRKLHFEDEV [K2W]` is recorded as 0.405.
`PKAIRKLHFESEV [D11S]`: “normalised enrichment score” 0.466.
Under “normalised enrichment score”, `PKAIRKLAFEDEV [H8A]` is recorded as 0.514.
Under “normalised enrichment score”, `PKAIRALHFEDEV [K6A]` is recorded as 1.42.
For `PKAIRKLHFECEV [D11C]`, “normalised enrichment score” read 0.431.
For `PKAIRPLHFEDEV [K6P]`, “normalised enrichment score” read -0.248.
`PKAIRKLVFEDEV [H8V]` — result for “normalised enrichment score”: 1.94.
`PKAIRKLHFEMEV [D11M]`: “normalised enrichment score” 0.31.
Under “normalised enrichment score”, `PKAIPKLHFEDEV [R5P]` is recorded as -0.142.
For `PKAHRKLHFEDEV [I4H]`, “normalised enrichment score” read 0.2.
Under “normalised enrichment score”, `PKAIRKLPFEDEV [H8P]` is recorded as 0.377.
Under “normalised enrichment score”, `PKAIRKLHFETEV [D11T]` is recorded as -0.105.

Block 4
Target: Histone acetyltransferase KAT6A, winged helix 1, GST fusion (KAT6A, Homo sapiens, UniProt Q92794, residues 1-85)
Technique: protein binding microarray
Form: double-stranded DNA, one strand shown
Sample: in vitro
Tested at: not given
Setting: 8-mer, flanks averaged, mean of 2 arrays, mostly near background
Reference: not given
Reading: higher = stronger binding
Construct (chain): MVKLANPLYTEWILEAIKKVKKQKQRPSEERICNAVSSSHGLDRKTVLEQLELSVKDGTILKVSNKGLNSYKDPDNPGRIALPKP
With `ATTCGAAA` the E-score was -0.206.
`GAAATGCC` has an E-score of 0.133.
With `CATCCTAC` the E-score was -0.123.
`CCACGCAA` has an E-score of 0.0304.
`TATGGCGA` gave an E-score of 0.0138.
`AACAGGGC` gave an E-score of -0.136.
`ACGGGCTC` gave an E-score of 0.298.
`GATGCAAC` has an E-score of -0.167.
`ACATTCTG` gave an E-score of -0.222.
The E-score of `ATCGAGAC` is reported as -0.0866.
`AGGATGCA` has an E-score of -0.242.
The E-score of `CATTTGGA` is reported as -0.197.
The E-score of `ATTAAGTA` is reported as -0.0804.
`TATCCAAA` gave an E-score of -0.271.
For `CCCAAAAC`, the E-score was -0.264.
With `CGCCATAC` the E-score was 0.052.

Excerpt of the above (block 1):
With `S43K` the binding fitness was -1.55 natural log.
`M51N` gave a binding fitness of -1.47 natural log.
The binding fitness of `E44A` is reported as -1.44 natural log.
For `R30Q`, the binding fitness was -1.19 natural log.
`K34A` gave a binding fitness of -1.58 natural log.
For `R53T`, the binding fitness was -1.35 natural log.
